Experimental data of several laboratories.
Each numbered part is a random draw from the data of one study; scales do not carry over between parts. ± marks the error that the study gave.

Sample 1
Target: Cellular tumor antigen p53, DNA-binding domain (TP53, Homo sapiens, UniProt P04637, M133L/N239Y/N268D/V203A/Y220C)
Technique: differential scanning fluorimetry
Concentration: 250 µM
Time: 24 h
Quantity: ΔTm
N#Cc1cnc(Br)cn1: 2.65 °C
N#Cc1cc(C(F)(F)F)c(Cl)nc1Cl: 3 °C
Cc1nc(C#N)cnc1Cl: 4.45 °C
Cc1nc(Cl)cnc1C#N: 1.1 °C

Sample 2
Target: Cyclin-dependent kinase 2, with cyclin A (CDK2, Homo sapiens, UniProt P24941)
Effect on: enzyme activity
Action: inhibitor
Quantity: IC50
Cc1cccc(-c2ccc3nc(NC(=O)c4ccccc4)nn3c2)c1: > 100 µM
COc1ccc(-c2ccc3nc(NC(=O)C4CCCCC4)nn3c2)cc1C: > 100 µM
O=C(Nc1nc2ccc(-c3cccc4ccccc34)cn2n1)C1CCCCC1: > 100 µM
COc1cccc(-c2ccc3nc(NC(=O)C4CCCCC4)nn3c2)c1: > 100 µM
Cc1ccc(NC(=O)Nc2ccnc(-c3cccnc3)n2)cc1: 0.026 µM
CC1(C)CC(=O)C=C(NC(=O)NCC2CCCCC2)C1: > 100 µM
O=C(Nc1nc2ccc(-c3cccc(Cl)c3)cn2n1)C1CCCCC1: > 100 µM
COc1cc(-c2ccc3nc(NC(=O)C4CCCCC4)nn3c2)ccc1O: 0.36 µM

Sample 3
Matrix: rat liver microsomes
Concentration: 5 µM
Time: 15 min
Quantity: compound metabolized
FC(F)(F)c1c(CN2CCC(c3ccccc3)CC2)ccn2c(CC3CC3)nnc12: 84%
FC(F)(F)c1c(-c2ccc(N3CCNCC3)c(Cl)c2)ccn2c(CC3CC3)nnc12: 23%
Cc1cc(Oc2ccc(-c3ccn4c(CC5CC5)nnc4c3C(F)(F)F)cc2F)ccn1: 29%
COc1ccc(CNc2ccc(-c3ccn4c(CC5CC5)nnc4c3C(F)(F)F)cc2F)cn1: 93%
CCOCc1nnc2c(C(F)(F)F)c(-c3ccc4[nH]ccc4c3)ccn12: 97%
Clc1c(-c2ccc(Oc3ccccc3)cc2)ccn2c(CC3CC3)nnc12: 10%

Further values, each from its own experiment
Route: oral
Dose: 20 mg/kg
O=C(O)COc1ccc(Br)cc1/C=N/NC(=O)c1ccc(Cl)cc1
relative protection (mouse, PTZ-induced seizures; reference: valproic acid 300 mg/kg): 150%

O=C(O)COc1ccccc1/C=N/NC(=O)CNc1ccc(Cl)cc1
latency to forelimb clonus (mouse, pilocarpine-induced seizures; together with: pilocarpine 300 mg/kg i.p.): 12.4 ± 0.34 min

Cc1ccc(C(=O)N/N=C/c2cc(Br)ccc2OCC(=O)O)cc1
seizure severity (Racine scale 0-5; male mice, pilocarpine-induced seizures; 1.5 h after pilocarpine, unit not given, together with: pilocarpine 300 mg/kg i.p.; higher = more severe): 2.3 ± 0.48

O=C(O)COc1ccc(Br)cc1C=NNC(=O)Cc1ccccc1 (mixture of isomers)
MDA level reduction (colorimetric, refers to: malondialdehyde; mouse, pilocarpine epilepsy model, hippocampus; reference: pilocarpine group): 67.2%

A few entries again (further values, each from its own experiment):
O=C(O)COc1ccc(Br)cc1/C=N/NC(=O)c1ccc(Cl)cc1
relative protection (mouse, PTZ-induced seizures; reference: valproic acid 300 mg/kg): 150%

O=C(O)COc1ccccc1/C=N/NC(=O)CNc1ccc(Cl)cc1
latency to forelimb clonus (mouse, pilocarpine-induced seizures; together with: pilocarpine 300 mg/kg i.p.): 12.4 ± 0.34 min

Cc1ccc(C(=O)N/N=C/c2cc(Br)ccc2OCC(=O)O)cc1
seizure severity (Racine scale 0-5; male mice, pilocarpine-induced seizures; 1.5 h after pilocarpine, unit not given, together with: pilocarpine 300 mg/kg i.p.; higher = more severe): 2.3 ± 0.48
